Assay results from different studies.
Numbered parts are unrelated; each lists some results of a single study. Changes are numbered by the printed parent chain.

Set 1 — target: CCNB2, cyclin fold, Cln2 fusion (human); technique: yeast growth competition, sequencing; matrix: yeast; setting: weak parent motif; reference: not given; direction: higher = stronger binding; quantity: normalised enrichment score
Starting sequence: SAMHD1 docking peptide (human); ASKSRVQLFKDDP; partner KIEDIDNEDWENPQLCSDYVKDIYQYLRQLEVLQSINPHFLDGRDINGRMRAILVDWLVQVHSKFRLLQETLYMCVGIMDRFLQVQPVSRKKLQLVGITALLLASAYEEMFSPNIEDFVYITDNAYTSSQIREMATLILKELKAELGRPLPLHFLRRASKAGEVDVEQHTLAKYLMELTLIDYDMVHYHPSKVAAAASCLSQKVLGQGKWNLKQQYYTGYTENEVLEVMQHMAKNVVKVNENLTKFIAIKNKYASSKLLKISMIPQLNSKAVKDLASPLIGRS
F9T: -0.0303
S4C: 0.939
D11I: -0.0438
F9Q: 0.0403
V6Y: -0.0571
S4V: 0.86
Q7M: -0.383

Set 2 — technique: RNA Bind-n-Seq; form: RNA; matrix: in vitro; concentration: 200 nM; setting: whole 134-nt RNA, ends assumed; together with: 150 mM LiCl; reference: input library; direction: higher = stronger binding; quantity: log2 enrichment; each molecule: 7-deaza-guanosine replaces G
Target: Fragile X messenger ribonucleoprotein 1, C-terminal low-complexity region (Fmr1, Mus musculus, UniProt P35922)
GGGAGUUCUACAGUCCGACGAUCUGGGAGGUGGAUUUUGUUUAUUUUUUUAGCUCAGUUCCAGGGGUGGGAAUUUUUUUUUAAUAUGUGUCAUGAAUAAAGUUGUUUUUGAAAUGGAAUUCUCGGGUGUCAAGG: 0.575
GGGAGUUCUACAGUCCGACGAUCUGUGCUACACAUCGUAUGUACCGAAUCGGGGUUUUUUUGGGUUUUUUUGGGUUUUUUUGGGGAAAGUAUUAUGUUACGCCGUUCGGAUCUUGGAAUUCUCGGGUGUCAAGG: 1.49
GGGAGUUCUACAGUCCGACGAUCACCAUGCAGGUGGGCAUCUUUGGGAAGUGGGGCAAGGGGGGGAUAGGGAGGGGGGUAACACUUUGGGAACAGGUAGUCCCAGGUCGUUUCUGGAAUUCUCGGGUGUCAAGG: 1.59
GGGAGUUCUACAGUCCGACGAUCCUGUGCUACACAUCGUAUGUACCGAAUCGGGAAAAAAAGGGAAAAAAAGGAAAAAAAGGGGAAAGUAUUAUGUUACGCCGUUCGGAUCUGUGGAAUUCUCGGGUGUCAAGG: 0.0355
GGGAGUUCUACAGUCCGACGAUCAAGUCCUGUGCUACACAUCGUAUGUACCGAAUCGGGAGGGUUUGGGUUUUUUUGGGAAAGUAUUAUGUUACGCCGUUCGGAUCUGCACUUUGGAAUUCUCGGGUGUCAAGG: -1.47
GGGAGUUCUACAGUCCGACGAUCCACAGACAACACGCACCCACACAGACACAGAGGGAAGGGGUUGGGAUGGGGACAGGGUGCACAGCAGGGCGGGGUAGGACUCCAGCCCCUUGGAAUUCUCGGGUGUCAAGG: -1.11
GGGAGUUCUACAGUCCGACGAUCCACAGACAACACGCACCCACUCAGACACAGAGGGAAGGGGUUGGGAUGGGGACAGGGUGCACAGCAGGGCGGGGUAGGACCCCAGCCCCUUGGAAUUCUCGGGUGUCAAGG: -0.0649
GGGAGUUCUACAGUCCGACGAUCCCUGUGCUACACAUCGUAUGUACCGAAUCAAACCCCCCCAAAUUUUUAAAUUUUUUUAAAAAAGUAUUAUGUUACGCCGUUCGGAUCUGCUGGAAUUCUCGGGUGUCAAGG: 1.73

Set 3 — technique: RNA Bind-n-Seq; form: RNA; matrix: in vitro; concentration: 365 nM; reference: no-protein control; direction: higher = stronger binding; quantity: RBNS enrichment (R)
Target: RNA binding protein fox-1 homolog 2, RRM domain, GST-SBP tag (RBFOX2, Homo sapiens, UniProt O43251-10, residues 100-194)
Setting: natural RNA segment, single round, ends assumed
Construct (chain): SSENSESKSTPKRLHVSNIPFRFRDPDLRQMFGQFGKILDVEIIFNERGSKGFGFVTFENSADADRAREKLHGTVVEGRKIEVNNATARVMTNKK
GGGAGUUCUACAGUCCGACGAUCCAGAGCCUUGGUUUAUCCUGUACCUGUCAUUUCUGUUUGCAACUGGUUGCUGUAGCAACAAGAGUGUUUGGUAGCUGACCAAGGUGUCAGGAUCCCUGACCCUAGCGAUAUGGAAUUCUCGGGUGCCAA: 0.439
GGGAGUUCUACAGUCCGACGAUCGAUCACAAAAACAUGGUGGGUCCAUGGGCAGAGCCCAAGGGAAUUCGGUGUGCACCAGGGUUGACCCCAGAGGAUUGCUGCCCCAUCAGUGCUCCCUCACAUGUCAGUACUGGAAUUCUCGGGUGCCAA: 0.33
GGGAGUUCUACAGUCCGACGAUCACUGCUCUACUACACCAUCCACCGCGCCGCGCGCAUGUCCUUCCGUCAGCUCUUCCAGGACCUGGAGCGCUACGUGCAGGACGCCGAUGUGCGCUGGGAGUACUGCGUGCUGGAAUUCUCGGGUGCCAA: 0.216
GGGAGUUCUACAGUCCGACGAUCAGAGGAGAAUGUGAGCACAUUUGACUGACACGGCCUGGAACCCAGUGCAUCUUUUCACGGCACUGCCGAGACGUACUCCCUGGUGUUGCCGCUCACAGGCCCUCAGCUGUUGGAAUUCUCGGGUGCCAA: 7.22
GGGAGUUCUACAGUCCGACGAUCCCGUAUUAAGAAAUCAGAACAGUGCCUUAAGACAGACUGAGACGUCGUGAAAAAUGUGUUCACACUGUGGGAGGCAAAGCUUGGUCUGAGAAUGUAACUGUUGAUGUGAGUGGAAUUCUCGGGUGCCAA: 1.22
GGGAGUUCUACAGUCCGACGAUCUCAGCUAUGACAGCUGGUGUGGAGUAGAAGGGCAACUAGUUCUGUUAUUUAUUGAACAUUUGGGGUUUCAGUUGUAAAGCCACAACUACAGGUAGGACCUGAUAUUUCGGUGGAAUUCUCGGGUGCCAA: 0.403
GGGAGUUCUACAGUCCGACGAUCCACAUGUAUAAAGAUGUUCACAGAGAAAGAUGCUCUGUAGAGAAUUUGCUACCGAAGUUGGCUCAAGAAUUUGUUUUUAGUGUUAUUUACCAAGAUUAGGACGUCAGUGGUGGAAUUCUCGGGUGCCAA: 0.463
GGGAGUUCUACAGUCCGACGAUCGCUUGUUUGAUCUGUUUUCUGUAACUUUUGCUAAAUACUUUAUACAUUUUUCAUGUUAAAGAGCCGUGUCUCCCGCCAGCACUCCUCACCCCGGUAUGAAUGUGUUUCCUUGGAAUUCUCGGGUGCCAA: 5.03
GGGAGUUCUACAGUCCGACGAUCGGAUCAGGGGUGAUAGGGGAGAGCAAUUACUUUGUUCACUGUAUGCACCCGCGGGGGCCUGGGAGUCCCCAUUUGCAGGUGGGUAGGGCCUCCAGCCCACACCACCCAGAUGGAAUUCUCGGGUGCCAA: 0.44
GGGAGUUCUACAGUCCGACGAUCCCUCCCCCAACUAUAAAAUUAUUUUGUGGCUACUUCAUAACUGUAAUUUUGCUACUGUUAUGAAUCAUAAGAUGAAAUAUCUGGUAUGCAACCCACAGGUUGAGAACUACUGGAAUUCUCGGGUGCCAA: 0.479

Further values, each from its own experiment
PhoQ, residues 284 288 289 292 302 303 TLASMF — fold induction (PhoP, residues 12 14 15 18 19 QQAYL (Escherichia coli, UniProt P23836); Sort-seq, measured: YFP reporter; E. coli; PhoQ-PhoP variant library, together with: 10 µM Mg2+; reference: high Mg2+ state, higher = stronger signaling): 1.97

For quick reference, copied from above (set 1):
D11I: -0.0438
S4C: 0.939
